Assay results collected from several papers.
Lines come from different studies, so protocols differ. Several values in a cell are separate wells, animals, samples, runs or records. Converted amounts (≈) assume the structure as drawn.
Chain of UniProt P48736 (whole entry, looked up): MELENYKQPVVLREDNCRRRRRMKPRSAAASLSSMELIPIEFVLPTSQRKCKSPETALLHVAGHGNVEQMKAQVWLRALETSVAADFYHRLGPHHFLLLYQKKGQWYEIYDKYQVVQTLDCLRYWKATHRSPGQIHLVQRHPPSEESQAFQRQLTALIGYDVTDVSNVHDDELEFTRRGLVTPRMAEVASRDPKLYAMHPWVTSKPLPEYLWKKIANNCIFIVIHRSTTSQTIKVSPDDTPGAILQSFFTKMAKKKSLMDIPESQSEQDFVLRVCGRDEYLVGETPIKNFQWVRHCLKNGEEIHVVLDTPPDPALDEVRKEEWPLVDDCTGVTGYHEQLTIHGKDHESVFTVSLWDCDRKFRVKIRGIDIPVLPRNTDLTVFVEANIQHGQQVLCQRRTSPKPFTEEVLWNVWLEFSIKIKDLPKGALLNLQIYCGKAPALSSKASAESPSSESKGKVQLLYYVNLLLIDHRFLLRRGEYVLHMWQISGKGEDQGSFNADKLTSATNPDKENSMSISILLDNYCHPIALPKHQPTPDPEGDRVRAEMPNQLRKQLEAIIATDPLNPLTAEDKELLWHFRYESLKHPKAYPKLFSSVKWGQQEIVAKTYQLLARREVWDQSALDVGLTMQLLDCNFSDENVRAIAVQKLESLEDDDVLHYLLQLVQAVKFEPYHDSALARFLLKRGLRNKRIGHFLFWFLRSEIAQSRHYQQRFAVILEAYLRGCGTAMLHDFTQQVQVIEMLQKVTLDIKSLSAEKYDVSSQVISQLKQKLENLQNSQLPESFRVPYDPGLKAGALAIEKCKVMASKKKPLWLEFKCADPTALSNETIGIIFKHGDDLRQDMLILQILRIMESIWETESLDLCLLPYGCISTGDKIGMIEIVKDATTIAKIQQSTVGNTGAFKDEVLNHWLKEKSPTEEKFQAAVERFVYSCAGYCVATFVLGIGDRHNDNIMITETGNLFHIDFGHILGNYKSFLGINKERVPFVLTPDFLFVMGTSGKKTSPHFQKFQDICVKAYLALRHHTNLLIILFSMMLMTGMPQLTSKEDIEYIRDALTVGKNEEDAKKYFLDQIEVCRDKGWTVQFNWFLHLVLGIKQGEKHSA
Chain of UniProt Q6ZWH5 (whole entry, looked up): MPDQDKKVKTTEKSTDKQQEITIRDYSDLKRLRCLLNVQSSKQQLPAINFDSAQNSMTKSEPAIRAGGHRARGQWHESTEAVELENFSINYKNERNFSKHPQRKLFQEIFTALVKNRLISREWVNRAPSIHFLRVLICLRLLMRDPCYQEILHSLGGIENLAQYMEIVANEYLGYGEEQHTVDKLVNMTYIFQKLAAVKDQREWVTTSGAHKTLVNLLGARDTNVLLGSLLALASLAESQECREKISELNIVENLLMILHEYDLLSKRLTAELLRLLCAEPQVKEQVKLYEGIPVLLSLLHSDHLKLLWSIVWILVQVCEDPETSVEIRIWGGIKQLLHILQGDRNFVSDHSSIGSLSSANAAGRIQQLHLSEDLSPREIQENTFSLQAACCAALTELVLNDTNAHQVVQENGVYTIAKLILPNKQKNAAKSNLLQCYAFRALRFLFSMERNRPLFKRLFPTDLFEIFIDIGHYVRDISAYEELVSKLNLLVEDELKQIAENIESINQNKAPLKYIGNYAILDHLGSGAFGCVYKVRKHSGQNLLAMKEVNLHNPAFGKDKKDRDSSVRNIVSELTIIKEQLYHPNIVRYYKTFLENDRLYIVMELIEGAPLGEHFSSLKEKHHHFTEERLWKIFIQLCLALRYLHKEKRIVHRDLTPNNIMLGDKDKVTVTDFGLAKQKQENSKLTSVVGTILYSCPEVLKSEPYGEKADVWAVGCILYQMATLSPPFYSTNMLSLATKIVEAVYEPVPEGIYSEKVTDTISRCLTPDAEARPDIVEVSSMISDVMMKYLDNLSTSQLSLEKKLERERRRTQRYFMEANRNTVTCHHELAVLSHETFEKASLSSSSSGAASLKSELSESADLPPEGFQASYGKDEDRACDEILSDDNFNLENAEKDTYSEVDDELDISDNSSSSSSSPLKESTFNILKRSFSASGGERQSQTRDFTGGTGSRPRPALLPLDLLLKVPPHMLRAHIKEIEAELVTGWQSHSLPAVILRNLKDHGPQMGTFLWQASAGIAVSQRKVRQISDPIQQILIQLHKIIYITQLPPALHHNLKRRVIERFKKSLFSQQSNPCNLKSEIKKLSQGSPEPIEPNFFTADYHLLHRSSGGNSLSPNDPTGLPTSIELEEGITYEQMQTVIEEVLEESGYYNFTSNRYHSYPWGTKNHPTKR
Chain of UniProt Q13237 (whole entry, looked up): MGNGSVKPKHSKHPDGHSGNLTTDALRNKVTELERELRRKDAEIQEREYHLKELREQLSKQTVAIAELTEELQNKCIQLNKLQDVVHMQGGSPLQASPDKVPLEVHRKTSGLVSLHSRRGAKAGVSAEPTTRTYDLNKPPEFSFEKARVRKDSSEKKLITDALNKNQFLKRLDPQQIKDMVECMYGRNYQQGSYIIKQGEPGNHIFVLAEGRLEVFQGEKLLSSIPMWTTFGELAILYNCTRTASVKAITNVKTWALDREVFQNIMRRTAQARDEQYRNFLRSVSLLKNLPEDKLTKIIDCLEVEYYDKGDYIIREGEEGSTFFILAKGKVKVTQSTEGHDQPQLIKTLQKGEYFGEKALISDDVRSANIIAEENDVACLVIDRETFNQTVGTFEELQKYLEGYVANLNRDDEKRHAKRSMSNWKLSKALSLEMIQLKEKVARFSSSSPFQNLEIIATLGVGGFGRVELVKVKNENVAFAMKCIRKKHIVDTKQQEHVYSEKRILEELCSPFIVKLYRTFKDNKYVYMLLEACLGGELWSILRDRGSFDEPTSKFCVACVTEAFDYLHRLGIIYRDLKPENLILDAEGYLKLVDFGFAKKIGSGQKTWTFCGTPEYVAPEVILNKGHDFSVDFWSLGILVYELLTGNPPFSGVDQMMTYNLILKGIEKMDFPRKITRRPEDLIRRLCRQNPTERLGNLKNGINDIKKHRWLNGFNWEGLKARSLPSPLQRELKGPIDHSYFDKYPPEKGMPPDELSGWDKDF
Chain of UniProt Q13882 (whole entry, looked up): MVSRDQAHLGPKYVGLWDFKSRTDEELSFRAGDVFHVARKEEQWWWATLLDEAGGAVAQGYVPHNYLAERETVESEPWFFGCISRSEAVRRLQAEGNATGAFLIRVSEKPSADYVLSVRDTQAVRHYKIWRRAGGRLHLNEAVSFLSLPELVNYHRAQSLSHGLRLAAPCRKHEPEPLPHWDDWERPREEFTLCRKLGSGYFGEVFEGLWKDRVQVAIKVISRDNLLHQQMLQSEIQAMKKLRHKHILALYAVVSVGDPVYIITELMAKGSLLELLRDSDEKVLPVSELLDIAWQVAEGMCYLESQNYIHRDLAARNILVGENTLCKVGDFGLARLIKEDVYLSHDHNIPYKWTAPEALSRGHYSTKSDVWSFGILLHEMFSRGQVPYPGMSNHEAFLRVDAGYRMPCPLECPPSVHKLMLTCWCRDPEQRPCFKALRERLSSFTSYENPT
Chain of UniProt Q13131 (whole entry, looked up): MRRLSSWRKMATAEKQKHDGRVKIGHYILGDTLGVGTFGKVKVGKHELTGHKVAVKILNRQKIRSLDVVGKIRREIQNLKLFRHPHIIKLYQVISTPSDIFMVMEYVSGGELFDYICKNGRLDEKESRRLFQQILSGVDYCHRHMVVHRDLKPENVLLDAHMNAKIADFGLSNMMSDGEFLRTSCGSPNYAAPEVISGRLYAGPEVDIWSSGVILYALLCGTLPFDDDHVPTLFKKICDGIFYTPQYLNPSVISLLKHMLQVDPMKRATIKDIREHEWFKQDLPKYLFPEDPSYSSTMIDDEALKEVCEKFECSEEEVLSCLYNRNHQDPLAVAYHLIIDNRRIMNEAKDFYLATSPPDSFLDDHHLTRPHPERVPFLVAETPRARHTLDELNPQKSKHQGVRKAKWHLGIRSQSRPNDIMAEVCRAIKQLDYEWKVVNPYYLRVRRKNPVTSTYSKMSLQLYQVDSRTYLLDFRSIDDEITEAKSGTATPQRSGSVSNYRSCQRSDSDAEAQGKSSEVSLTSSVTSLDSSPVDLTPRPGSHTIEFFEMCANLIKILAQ

`CCn1cc(C2CC2)c2c(CN3CCCC(F)(F)C3)n(C)nc2c1=O` has a kinetic solubility of 80 to 160 µM (≈ 28 to 56.1 µg/mL) (nephelometry; aqueous buffer; 30 min, pH 6.5).
For `C[C@@H](c1ncncc1F)[C@](O)(Cn1cncn1)c1ccc(F)cc1F`, the haemolysis was 100% (haemolysis; mouse; 62.5 µg/mL, 1 h).
`Cn1nc2c(=O)n(C3CC3)ncc2c1[C@](O)(c1ccc(C(F)(F)F)c(C#N)c1)C(F)(F)F` has a kinetic solubility of 20 to 40 µM (≈ 9.15 to 18.3 µg/mL) (nephelometry; aqueous buffer; 30 min, pH 6.5).
`COc1cccc(OC)c1-c1cc(C(=O)NC2(C(=O)O)C3CC4CC(C3)CC2C4)nn1-c1ccc(C(=O)N(C)CCCN(C)CCCN(C)C(=O)CN2CCN(CC(=O)[O-])CCN(CC(=O)[O-])CCN(CC(=O)[O-])CC2)cc1C(C)C.[177Lu+3]` (stereo not drawn) gave a tracer uptake of 0.069 %ID/g (HT-29 tumour model; host not given, stomach; 24 h, tumour-bearing).
`COc1ccc([C@@H](O)c2cc(-c3ncnc4cc(N5CCOCC5)ccc34)c(F)cc2Cl)nn1` gave a Tmax of 1.16 h (human, plasma; oral, 200 mg, multiple doses, twice daily, patients).
With `C=CC(=O)N1CCC(COCC(=O)N2CCN(c3nc(-c4cnc(N)nc4C(F)F)nc(N4CCOC[C@@H]4C)n3)CC2)CC1` the remaining binding was 100% (5'-AMP-activated protein kinase catalytic subunit alpha-1 (PRKAA1, Homo sapiens, UniProt Q13131); binding, competition with immobilised ligand; 1 µM).
`OCc1ccc(-c2nn(Cc3cccnc3)c3ccccc23)o1` has a half-life of 0.183 h (metabolic stability; rat, liver microsomes; 1 µM, pH 7.4).
With `CCN1CCN(Cc2ccc(NC(=O)c3ccc(C)c(NC(=O)c4cncc(-c5cccs5)c4)c3)cc2C(F)(F)F)CC1` the half-life was 2.02 h (mouse, plasma; intraperitoneal, 10 mg/kg, single dose).
`COc1cc(-c2cncc3c2CN(C)Cc2cc(N4CCNCC4)ccc2-3)cc(OC)c1OC` gave a remaining activity of 110% (cGMP-dependent protein kinase 2 (PRKG2, Homo sapiens, UniProt Q13237); enzyme activity, inhibitor; 1 µM).
With `COc1ccc2c(=O)n(C)c(-c3ccccc3)nc2c1` the concentration was 1.85 ng/mL (male Sprague-Dawley rat, brain; oral, 30 mg/kg, 30 min).
For `O=C(c1ccc(F)cc1)C1CCN(CCn2c(=O)[nH]c3ccccc3c2=O)CC1`, the compound remaining was 82.9% (metabolic stability; rat, liver microsomes; 5 min).
`O=C1CC[C@H](N2Cc3cc(N4CCN(CC5CCN(c6ccc([C@@H]7c8ccc(O)cc8CC[C@@H]7c7ccccc7)cc6)CC5)CC4)ccc3C2=O)C(=O)N1` gave a clearance of 8.02 mL/min/kg (female Sprague-Dawley rat, plasma; intravenous, 5 mg/kg, fed).
`OCc1ccc(-c2nn(Cc3ccccc3)c3ccccc23)o1` has a bioavailability of 52% (male CD-1 mouse, plasma; intraperitoneal, 30 mg/kg).
With `CN(C)C(=O)c1cc2cnc(Nc3ccc(-c4ccc5c(=O)cc(N6CCOCC6)oc5c4)cc3)nc2n1C1CCCC1` the Vd/F was 33.8 L/kg (BALB/c mouse, plasma; oral, 20 mg/kg).
For `Cc1ncsc1-c1ccc([C@H](C)NC(=O)[C@@H]2C[C@@H](O)CN2C(=O)[C@@H](NC(=O)CCCCn2cc(CCCC(=O)NCCCn3cc(-c4ccc5c(c4)CCN5C(=O)Cc4cccc(OC(F)(F)F)c4)c4c(N)ncnc43)nn2)C(C)(C)C)cc1`, the half-life was 0.455 h (metabolic stability; mouse, liver S9; 1 µM).
With `CCOC(=O)[C@@]12C[C@@H]1[C@@H](n1ccc3c(NC)nc(C#Cc4ccc(Cl)s4)nc31)[C@H](O)[C@@H]2O` the concentration was 20.9 ng/mL (male Sprague-Dawley rat, plasma; intravenous, 0.5 mg/kg, 4.8 min).
For `CC(C)[C@@H](CS(=O)(=O)C(C)C)N1C(=O)[C@@](C)(CC(=O)O)C[C@H](c2cccc(Cl)c2)[C@H]1c1ccc(Cl)cc1`, the Vd was 0.588 L/kg (FVB mouse, plasma; intravenous, 20 mg/kg, single dose).
With `Cn1nc2c(=O)n(C3CC3)ccc2c1[C@](O)(c1cnc(C(F)(F)F)c(Cl)c1)C1CC1` the kinetic solubility was under 25 µM (nephelometry; aqueous buffer; 30 min, pH 6.5).
The Vd of `Nc1ncc(-c2ccncc2)nc1Nc1ccc2[nH]ccc2c1` is reported as 6.8 L/kg (male C57BL/6 mouse, plasma; intravenous, 5 mg/kg).
The half-life of `O=C1CC[C@H](N2Cc3c(ccc4c3OCC43CCN(C[C@@H]4CCC5(CCN(c6ccc([C@@H]7c8ccc(O)cc8CC[C@@H]7c7ccccc7)cc6)CC5)OC4)CC3)C2=O)C(=O)N1` is reported as about 23 h (beagle dog, plasma; oral, 3 mg/kg).
For `CCCCC(=O)Nc1ccc(-c2ccc3ncn(CCC)c(=O)c3c2)cn1`, the remaining binding was 100% (Serine/threonine-protein kinase Nek10 (NEK10, Homo sapiens, UniProt Q6ZWH5); binding, competition with immobilised ligand; 0.5 µM).
With `Cc1nc(-c2cnc(NC(C)C)n(C)c2=O)ccc1Oc1ccnc(-c2cnn(C)c2)c1` the Tmax was 2 h (female mouse, plasma; oral, 7.5 mg/kg, single dose).
`Cc1cc([C@@H](C)Nc2ccccc2C(=O)O)c2nc(N3CCC(F)(F)CC3)c(C#N)c(=O)n2c1` has a remaining binding of 100% (Phosphatidylinositol 4,5-bisphosphate 3-kinase catalytic subunit gamma isoform (PIK3CG, Homo sapiens, UniProt P48736); binding, competition with immobilised ligand; 1 µM).
`CCn1cc(C2CC2)c2c(CN3CCC(F)(F)C(C)(C)C3)n(C)nc2c1=O` has a kinetic solubility of 12.5 to 25 µM (≈ 4.73 to 9.46 µg/mL) (nephelometry; aqueous buffer; 30 min, pH 6.5).
`C(=N\Nc1ccccc1)/c1ccc(-c2cccc(/C=N/Nc3ccccc3)c2)cc1` gave a haemolysis of under 25% (haemolysis; mouse; 62.5 µg/mL, 1 h).
With `CNc1ncc2c(/C=C/C(=O)N3CCC(OC)CC3)nn(Cc3cccc(C(F)(F)F)c3)c2n1` the remaining activity was 96% (Protein-tyrosine kinase 6 (PTK6, Homo sapiens, UniProt Q13882); enzyme activity, inhibitor, radiometric; 1 µM).
`O=C1c2ccncc2C(=O)c2c1[nH]c1ccccc21` gave a clearance of 13.7 mL/min (rat, plasma; intravenous, 5 mg/kg, single dose).
`Cn1nc2c(=O)n(C3CC3)cnc2c1[C@](O)(c1cnc(C(F)(F)F)c(Cl)c1)C(F)(F)F` has a kinetic solubility of 80 to 160 µM (≈ 37.4 to 74.8 µg/mL) (nephelometry; aqueous buffer; 30 min, pH 6.5).
The concentration of `COc1cccc(-c2n[nH]c(SCc3ccccn3)n2)c1OC` is reported as 10000 ng/mL (female Sprague-Dawley rat, plasma; oral, 10 mg/kg, 30 min, single dose).
With `NC(=S)NN=Cc1ncccc1N` the bioavailability was about 66% (human, plasma; oral, 100 mg).
With `O=C(C=Cc1ccccc1)Nc1cc(-c2ccnc(N3CCC(O)CC3)c2)ccn1` the Vd was 9.45 L/kg (female Sprague-Dawley rat, plasma; intravenous, 5 mg/kg).
`Cc1noc(C)c1Cn1cc(N2C(=O)CN(Cc3cccc(O)c3)C2=O)cn1` gave a concentration of 12.3 ng/mL (male Sprague-Dawley rat, plasma; oral, 10 mg/kg, 30 min).
For `O=C(COc1ccc(Cl)cc1)NC12CC(c3nnc([C@H]4C[C@@H](OC(F)(F)F)C4)o3)(C1)C2`, the Tmax was 4.02 h (human, plasma; oral, 145 mg, multiple doses, once daily, steady state, healthy volunteers).
`CC[C@@](O)(c1cc(F)c(Cl)c(F)c1)c1c2ccn(C3CC3)c(=O)c2nn1C` gave a kinetic solubility of 50 to 100 µM (≈ 19.7 to 39.4 µg/mL) (nephelometry; aqueous buffer; 30 min, pH 6.5).
For `Cc1c(C(=O)O)ccc2c3n(nc12)[C@@H]1[C@H](C3)N(CC2CC2)[C@@]2(C(=O)Nc3cc(Cl)ccc32)[C@H]1c1cccc(Cl)c1F`, the bioavailability was 76% (female minipig, plasma; oral, 2 mg/kg).
For `CCn1ccc2c([C@](O)(c3ccc(C(F)(F)F)nc3)C3CC3)n(C)nc2c1=O`, the kinetic solubility was 80 to 160 µM (≈ 31.4 to 62.8 µg/mL) (nephelometry; aqueous buffer; 30 min, pH 6.5).
For `Fc1cccc(N/N=C/c2ccc(-c3ccc(/C=N/Nc4cccc(F)c4)cc3)cc2)c1`, the haemolysis was under 20% (haemolysis; mouse; 62.5 µg/mL, 1 h).
`CC[C@@](O)(c1ccc(F)c(Cl)c1)c1c2ccn(C3CC3)c(=O)c2nn1C` gave a kinetic solubility of 40 to 80 µM (≈ 15 to 30.1 µg/mL) (nephelometry; aqueous buffer; 30 min, pH 6.5).
For `Cc1ncsc1-c1ccc([C@H](CC(=O)N2CCN(c3ccc(C#Cc4ccc(C(=O)N5CCC(n6cc(-c7ccc8c(c7)CCN8C(=O)Cc7cccc(OC(F)(F)F)c7)c7c(N)ncnc76)CC5)cc4)cn3)CC2)NC(=O)[C@@H]2C[C@@H](O)CN2C(=O)[C@@H](NC(=O)C2(F)CC2)C(C)(C)C)cc1`, the half-life was over 4 h (metabolic stability; human, liver microsomes; 1 µM).
With `Cc1ccc2c(c1)nc(CCc1cccc3cccnc13)n2-c1ccccc1` the compound remaining was 0.15% (metabolic stability; rat, liver microsomes; 1.5 µM, 15 min).
`C[C@H]1COC2=C1C(=O)C(=O)c1c2ccc2c1CCCC2(C)C` gave a thermodynamic solubility of 26.2 µg/mL (≈ 88.4 µM) (water; 24 h, 25 °C).
`C[C@@H]1COCCN1c1cc([C@]2(O)C[C@H]3CC[C@@H](C2)O3)c2cnn(-c3cc[nH]n3)c2n1` has a fraction unbound of 0.0067 (mouse, plasma).
`COc1cc2c3c(n(CCCN4CCOCC4)c(=O)c2cc1OC)-c1cc2c(cc1C3=O)OCO2` has a half-life of 5.9 h (male beagle dog, plasma; intravenous, 10 mg/m², infusion).
For `C=CCn1c(=O)c2cnc(Nc3ccc(N4CCN(C)CC4)cc3)nc2n1-c1ccc2c(n1)[C@@](O)(CC)CC2`, the fraction unbound was 0.161 (mouse, plasma).
`Cc1ccc2c(c1)nc(/C=C/c1cccc3cccnc13)n2-c1ccccc1` gave a compound remaining of 23.9% (metabolic stability; rat, liver microsomes; 1.5 µM, 30 min).
`N#C[C@@]1(c2ccc3c(N)ncnn23)O[C@H](CO)[C@@H](O)[C@H]1O` has a fraction unbound of 0.957 (dog, plasma; 100 µM).
With `CCOc1c(O)cc(Br)c2c1CN1CCc3cc(OCC(F)F)c(O)cc3[C@@H]1C2` the compound remaining was < 1% and 0.3% (metabolic stability; rat, liver S9; 2 µM, 2 h, pH 7.4).
The scaled CLint of `O=c1ccc2ccc(O)cc2o1` is reported as 847 mL/min/kg (metabolic stability; monkey, liver microsomes).
